Results of several laboratories.
Every numbered part comes from another study and shows a few of its results, in no order.
Chain of UniProt P21917 (whole entry, looked up): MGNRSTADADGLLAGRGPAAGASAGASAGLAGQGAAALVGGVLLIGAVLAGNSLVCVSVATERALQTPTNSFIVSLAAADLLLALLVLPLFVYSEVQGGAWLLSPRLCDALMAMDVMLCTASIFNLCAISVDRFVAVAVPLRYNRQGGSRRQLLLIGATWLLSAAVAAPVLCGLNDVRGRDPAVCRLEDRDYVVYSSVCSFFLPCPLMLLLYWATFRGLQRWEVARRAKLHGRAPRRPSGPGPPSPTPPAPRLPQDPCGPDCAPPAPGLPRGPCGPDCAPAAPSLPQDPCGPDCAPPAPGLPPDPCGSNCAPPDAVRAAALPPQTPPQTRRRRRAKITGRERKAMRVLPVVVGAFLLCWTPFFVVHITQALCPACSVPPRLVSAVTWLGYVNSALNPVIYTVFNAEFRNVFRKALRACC
Chain of UniProt Q99759 (whole entry, looked up): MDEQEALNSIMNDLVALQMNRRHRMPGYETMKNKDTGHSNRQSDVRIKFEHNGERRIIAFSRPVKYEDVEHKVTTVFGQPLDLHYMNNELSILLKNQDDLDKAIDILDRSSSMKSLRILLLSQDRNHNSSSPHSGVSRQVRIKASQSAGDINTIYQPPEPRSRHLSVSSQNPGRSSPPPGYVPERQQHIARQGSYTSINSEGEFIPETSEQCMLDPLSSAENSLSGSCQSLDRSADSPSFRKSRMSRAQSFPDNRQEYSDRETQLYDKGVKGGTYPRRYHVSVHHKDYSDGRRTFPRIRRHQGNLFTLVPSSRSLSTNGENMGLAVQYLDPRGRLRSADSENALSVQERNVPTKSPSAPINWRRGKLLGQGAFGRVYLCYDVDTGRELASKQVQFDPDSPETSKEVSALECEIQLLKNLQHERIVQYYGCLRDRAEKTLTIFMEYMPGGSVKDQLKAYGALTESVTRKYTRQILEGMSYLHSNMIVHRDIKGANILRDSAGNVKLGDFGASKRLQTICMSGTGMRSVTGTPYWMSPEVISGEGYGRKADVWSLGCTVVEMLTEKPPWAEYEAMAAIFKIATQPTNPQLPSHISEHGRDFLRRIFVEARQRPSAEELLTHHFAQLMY
Chain of UniProt P07550 (whole entry, looked up): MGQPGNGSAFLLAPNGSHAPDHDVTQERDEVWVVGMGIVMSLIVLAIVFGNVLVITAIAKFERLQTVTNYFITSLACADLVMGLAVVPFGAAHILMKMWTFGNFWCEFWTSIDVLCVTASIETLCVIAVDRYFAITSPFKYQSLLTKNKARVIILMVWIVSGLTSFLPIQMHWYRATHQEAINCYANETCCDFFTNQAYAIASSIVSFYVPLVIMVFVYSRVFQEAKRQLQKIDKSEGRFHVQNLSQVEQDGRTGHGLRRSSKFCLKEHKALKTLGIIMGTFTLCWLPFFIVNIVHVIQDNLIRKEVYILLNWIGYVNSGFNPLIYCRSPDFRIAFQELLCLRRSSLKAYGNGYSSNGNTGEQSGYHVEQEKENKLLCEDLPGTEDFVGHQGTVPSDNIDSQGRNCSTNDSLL
Chain of UniProt P08581 (whole entry, looked up): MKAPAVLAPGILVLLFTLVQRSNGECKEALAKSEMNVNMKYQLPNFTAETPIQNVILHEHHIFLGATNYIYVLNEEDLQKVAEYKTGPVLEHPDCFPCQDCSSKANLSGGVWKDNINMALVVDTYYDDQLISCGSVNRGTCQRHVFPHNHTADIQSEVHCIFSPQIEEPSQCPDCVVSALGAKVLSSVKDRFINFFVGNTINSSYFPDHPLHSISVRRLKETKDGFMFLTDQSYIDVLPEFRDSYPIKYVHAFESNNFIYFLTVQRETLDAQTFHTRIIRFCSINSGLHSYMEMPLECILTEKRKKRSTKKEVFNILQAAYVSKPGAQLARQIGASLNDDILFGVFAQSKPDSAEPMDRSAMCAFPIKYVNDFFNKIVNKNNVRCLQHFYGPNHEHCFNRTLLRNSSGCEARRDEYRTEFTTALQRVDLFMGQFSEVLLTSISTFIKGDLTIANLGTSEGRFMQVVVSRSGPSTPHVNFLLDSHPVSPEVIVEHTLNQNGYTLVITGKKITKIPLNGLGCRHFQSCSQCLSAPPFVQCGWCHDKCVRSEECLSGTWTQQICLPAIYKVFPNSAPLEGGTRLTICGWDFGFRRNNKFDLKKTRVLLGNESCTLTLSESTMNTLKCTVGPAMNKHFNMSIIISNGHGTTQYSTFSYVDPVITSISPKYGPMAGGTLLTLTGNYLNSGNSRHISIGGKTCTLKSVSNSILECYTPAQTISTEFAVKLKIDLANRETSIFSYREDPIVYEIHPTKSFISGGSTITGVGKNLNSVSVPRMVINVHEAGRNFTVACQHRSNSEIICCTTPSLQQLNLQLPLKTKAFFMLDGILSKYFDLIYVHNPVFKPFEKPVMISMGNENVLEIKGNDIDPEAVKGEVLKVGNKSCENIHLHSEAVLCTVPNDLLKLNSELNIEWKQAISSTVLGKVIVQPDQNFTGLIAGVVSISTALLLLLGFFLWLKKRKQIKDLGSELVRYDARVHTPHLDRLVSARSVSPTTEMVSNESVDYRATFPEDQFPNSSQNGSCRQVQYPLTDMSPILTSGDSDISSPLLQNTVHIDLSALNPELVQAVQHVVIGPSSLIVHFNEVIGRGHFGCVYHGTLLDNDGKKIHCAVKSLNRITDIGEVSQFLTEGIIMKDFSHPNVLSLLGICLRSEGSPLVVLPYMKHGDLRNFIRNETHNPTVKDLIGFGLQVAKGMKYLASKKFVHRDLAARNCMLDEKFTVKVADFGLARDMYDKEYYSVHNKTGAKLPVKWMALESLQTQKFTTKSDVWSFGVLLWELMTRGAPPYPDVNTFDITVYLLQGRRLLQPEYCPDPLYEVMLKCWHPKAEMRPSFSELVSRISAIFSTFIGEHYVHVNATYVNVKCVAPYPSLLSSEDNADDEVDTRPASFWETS
Chain of UniProt P08172 (whole entry, looked up): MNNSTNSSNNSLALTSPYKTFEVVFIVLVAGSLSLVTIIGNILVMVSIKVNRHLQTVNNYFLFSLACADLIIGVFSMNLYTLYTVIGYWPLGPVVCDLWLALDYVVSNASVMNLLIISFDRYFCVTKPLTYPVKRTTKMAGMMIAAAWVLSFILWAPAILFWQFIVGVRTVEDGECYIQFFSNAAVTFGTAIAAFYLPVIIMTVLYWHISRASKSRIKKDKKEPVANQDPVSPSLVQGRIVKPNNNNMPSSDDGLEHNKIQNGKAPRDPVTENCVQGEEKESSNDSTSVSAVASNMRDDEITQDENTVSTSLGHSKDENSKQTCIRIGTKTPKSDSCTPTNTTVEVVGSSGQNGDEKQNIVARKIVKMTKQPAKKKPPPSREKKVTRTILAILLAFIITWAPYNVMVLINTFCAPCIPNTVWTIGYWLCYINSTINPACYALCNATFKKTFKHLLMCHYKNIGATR
Chain of UniProt P35368 (whole entry, looked up): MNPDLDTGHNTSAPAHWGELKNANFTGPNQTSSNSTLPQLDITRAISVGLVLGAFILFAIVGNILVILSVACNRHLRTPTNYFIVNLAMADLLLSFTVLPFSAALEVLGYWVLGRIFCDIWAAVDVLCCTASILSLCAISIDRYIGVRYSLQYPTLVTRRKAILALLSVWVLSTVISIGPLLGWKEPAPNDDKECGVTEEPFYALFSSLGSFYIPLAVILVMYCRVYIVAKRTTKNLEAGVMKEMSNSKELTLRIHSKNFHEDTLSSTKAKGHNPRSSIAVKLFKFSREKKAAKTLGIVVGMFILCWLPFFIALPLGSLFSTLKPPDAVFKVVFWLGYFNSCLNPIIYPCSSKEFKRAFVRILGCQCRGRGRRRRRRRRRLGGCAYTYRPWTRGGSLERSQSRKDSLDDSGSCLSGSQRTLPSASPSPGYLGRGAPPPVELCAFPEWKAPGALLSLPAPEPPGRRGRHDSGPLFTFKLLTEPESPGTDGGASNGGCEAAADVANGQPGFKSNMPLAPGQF
Chain of UniProt Q99720 (whole entry, looked up): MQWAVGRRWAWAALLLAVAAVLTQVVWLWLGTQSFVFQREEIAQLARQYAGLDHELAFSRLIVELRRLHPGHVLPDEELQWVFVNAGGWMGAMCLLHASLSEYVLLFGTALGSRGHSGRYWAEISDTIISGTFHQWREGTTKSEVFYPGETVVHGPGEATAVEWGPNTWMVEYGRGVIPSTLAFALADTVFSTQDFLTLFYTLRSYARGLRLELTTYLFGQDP

Block 1 — observed: ligand displacement; concentration: 10 µM; quantity: inhibition
SMILES: O=C(O)[C@H]1[C@H](Cn2nnc3ccccc3c2=O)CC[C@@H]1C(=O)c1ccc(OCCC2CCOCC2)cc1
target = Alpha-1B adrenergic receptor (ADRA1B, Homo sapiens, UniProt P35368); result = 7.47%
target = Sigma intracellular receptor 2 (TMEM97, Homo sapiens, UniProt Q5BJF2); result = 28.5%
target = Beta-2 adrenergic receptor (ADRB2, Homo sapiens, UniProt P07550); result = 8.44%
target = Alpha-2C adrenergic receptor (ADRA2C, Homo sapiens, UniProt P18825); result = 8.3%
target = Sigma non-opioid intracellular receptor 1 (SIGMAR1, Homo sapiens, UniProt Q99720); result = 6.09%
target = 5-hydroxytryptamine receptor 6 (HTR6, Homo sapiens, UniProt P50406); result = 16.6%
target = Muscarinic acetylcholine receptor M5 (CHRM5, Homo sapiens, UniProt P08912); result = 4.3%
target = Histamine H4 receptor (HRH4, Homo sapiens, UniProt Q9H3N8); result = 1.99%
target = D(4) dopamine receptor (DRD4, Homo sapiens, UniProt P21917); result = 12.5%
target = Muscarinic acetylcholine receptor M2 (CHRM2, Homo sapiens, UniProt P08172); result = 1.41%
target = Alpha-2A adrenergic receptor (ADRA2A, Homo sapiens, UniProt P08913); result = -5.14%
target = Alpha-1D adrenergic receptor (ADRA1D, Homo sapiens, UniProt P25100); result = 0.59%
target = 5-hydroxytryptamine receptor 7 (HTR7, Homo sapiens, UniProt P34969); result = -3.55%
target = Histamine H1 receptor (HRH1, Homo sapiens, UniProt P35367); result = -8.85%

Block 2 — observed: enzyme activity; concentration: 10 µM; baseline: untreated control; quantity: remaining activity
Structure (SMILES): Cc1sc(C(=O)NC2COC2)cc1-n1cc(NC(=O)Nc2c(F)cccc2Cl)cn1
target = Receptor-interacting serine/threonine-protein kinase 4 (RIPK4, Homo sapiens, UniProt P57078); result = 98.5%
target = Maternal embryonic leucine zipper kinase (MELK, Homo sapiens, UniProt Q14680); result = 100%
target = Casein kinase I isoform delta (CSNK1D, Homo sapiens, UniProt P48730); result = 107%
target = Serine/threonine-protein kinase Sgk1 (SGK1, Homo sapiens, UniProt O00141); result = 114%
target = Hepatocyte growth factor receptor (MET, Homo sapiens, UniProt P08581); result = 74.5%
target = Serine/threonine-protein kinase 16 (STK16, Homo sapiens, UniProt O75716); result = 94.3%
target = Mitogen-activated protein kinase kinase kinase 3 (MAP3K3, Homo sapiens, UniProt Q99759); result = 109%
target = Serine/threonine-protein kinase BRSK1 (BRSK1, Homo sapiens, UniProt Q8TDC3); result = 85%
target = Serine/threonine-protein kinase Nek11 (NEK11, Homo sapiens, UniProt Q8NG66); result = 63.5%

Block 3 — cell line: mouse MPNST tumor cells; technique: high-content nuclear imaging; item: cell number; concentration: 10 µM; time: 12 h; setting: mean of 2 replicates; baseline: plate mean; reading: higher = more cells; quantity: nuclei count
SMILES = NC(=O)c1cc[n+](CC2=C(C(=O)[O-])N3C(=O)[C@@H](NC(=O)[C@@H](c4ccccc4)S(=O)(=O)O)[C@H]3SC2)cc1; result = 0.209 z-score
SMILES = CS(=O)(=O)c1ccc(-c2cc(Br)sc2-c2ccc(F)cc2)cc1; result = 1.95 z-score
SMILES = COc1ccc2cccc(N3CCN(CCNC(=O)c4ccc(F)cc4)CC3)c2c1; result = -0.283 z-score
SMILES = CSc1nc(-c2ccnc(NC(C)c3ccccc3)c2)c(-c2ccc(F)cc2)[nH]1 (stereo not drawn); result = 1.3 z-score
SMILES = C[C@H](CCC(=O)O)[C@H]1CC[C@H]2[C@@H]3C(=O)C[C@@H]4CC(=O)CC[C@]4(C)[C@H]3CC(=O)[C@]12C; result = 1.14 z-score
SMILES = C[C@@H](Oc1nnc(-c2ccncc2)n1C)c1cc(-c2cccc(Cl)c2)on1; result = 1.79 z-score

Block 4 — SMILES: C=CCc1ccc(O)c(-c2ccc(O)c(CC=C)c2)c1; observed: chloride current; quantity: normalized current
ANO1 del476-501/F628A: Anoctamin-1 (ANO1, Homo sapiens, UniProt Q5XXA6, del476-501/F628A)
Chain of UniProt Q5XXA6 (whole entry, unmodified, looked up): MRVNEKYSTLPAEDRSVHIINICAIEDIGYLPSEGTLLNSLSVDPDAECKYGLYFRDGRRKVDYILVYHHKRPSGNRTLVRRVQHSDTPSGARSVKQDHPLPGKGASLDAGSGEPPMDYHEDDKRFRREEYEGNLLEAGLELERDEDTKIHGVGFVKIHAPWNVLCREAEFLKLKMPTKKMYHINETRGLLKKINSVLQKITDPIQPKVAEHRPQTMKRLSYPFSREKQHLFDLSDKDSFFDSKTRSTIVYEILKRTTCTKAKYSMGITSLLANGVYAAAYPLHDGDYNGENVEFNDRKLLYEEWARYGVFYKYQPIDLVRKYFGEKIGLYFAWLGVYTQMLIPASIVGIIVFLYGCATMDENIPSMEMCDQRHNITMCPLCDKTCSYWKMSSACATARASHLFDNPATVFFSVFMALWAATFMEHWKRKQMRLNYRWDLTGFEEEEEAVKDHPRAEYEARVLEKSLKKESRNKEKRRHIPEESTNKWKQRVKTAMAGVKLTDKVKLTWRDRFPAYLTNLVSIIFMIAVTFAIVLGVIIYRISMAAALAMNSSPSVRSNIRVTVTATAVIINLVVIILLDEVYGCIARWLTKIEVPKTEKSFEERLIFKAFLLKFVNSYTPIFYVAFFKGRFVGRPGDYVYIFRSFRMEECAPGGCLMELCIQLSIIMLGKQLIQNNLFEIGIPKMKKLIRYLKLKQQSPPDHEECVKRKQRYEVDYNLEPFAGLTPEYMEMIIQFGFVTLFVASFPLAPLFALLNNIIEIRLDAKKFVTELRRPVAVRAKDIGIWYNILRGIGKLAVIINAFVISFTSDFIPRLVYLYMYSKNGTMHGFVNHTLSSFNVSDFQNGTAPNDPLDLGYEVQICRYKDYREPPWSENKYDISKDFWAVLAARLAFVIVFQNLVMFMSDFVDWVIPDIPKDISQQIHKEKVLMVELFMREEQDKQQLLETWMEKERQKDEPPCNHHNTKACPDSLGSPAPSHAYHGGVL
ANO1 del476-501: Anoctamin-1 (ANO1, Homo sapiens, UniProt Q5XXA6, del476-501)
target = ANO1 del476-501/F628A; assay = whole-cell voltage clamp; setting = 3 µM, concentration-response at 20 mV, together with: 4 µM Ca2+; result = 0.178
target = Anoctamin-1 (ANO1, Homo sapiens, UniProt Q5XXA6, del476-501/R541A); assay = inside-out patch clamp; setting = 10 µM, membrane voltage 80 mV; result = 0.56
target = ANO1 del476-501/F628A; assay = whole-cell voltage clamp; setting = 30 µM, concentration-response at -100 mV, together with: 4 µM Ca2+; result = -0.419
target = Anoctamin-1 (ANO1, Homo sapiens, UniProt Q5XXA6, del476-501/E649A); assay = inhibitor, inside-out patch clamp; setting = 10 µM, E623A mutant at -100 mV; result = -0.657
target = ANO1 del476-501/F628A; assay = whole-cell voltage clamp; setting = 30 µM, I-V at -80 mV, together with: 4 µM Ca2+; result = -0.332
target = ANO1 del476-501; assay = whole-cell voltage clamp; setting = 1 µM, wild type, I-V at 20 mV, together with: 4 µM Ca2+; result = 0.182
target = ANO1 del476-501; assay = whole-cell voltage clamp; setting = 3 µM, wild type, I-V at -20 mV, together with: 4 µM Ca2+; result = -0.149

Some of these lines once more (block 4):
target = ANO1 del476-501; assay = whole-cell voltage clamp; setting = 3 µM, wild type, I-V at -20 mV, together with: 4 µM Ca2+; result = -0.149
target = ANO1 del476-501/F628A; assay = whole-cell voltage clamp; setting = 30 µM, I-V at -80 mV, together with: 4 µM Ca2+; result = -0.332
target = ANO1 del476-501/F628A; assay = whole-cell voltage clamp; setting = 30 µM, concentration-response at -100 mV, together with: 4 µM Ca2+; result = -0.419
target = ANO1 del476-501/F628A; assay = whole-cell voltage clamp; setting = 3 µM, concentration-response at 20 mV, together with: 4 µM Ca2+; result = 0.178
target = Anoctamin-1 (ANO1, Homo sapiens, UniProt Q5XXA6, del476-501/E649A); assay = inhibitor, inside-out patch clamp; setting = 10 µM, E623A mutant at -100 mV; result = -0.657
target = ANO1 del476-501; assay = whole-cell voltage clamp; setting = 1 µM, wild type, I-V at 20 mV, together with: 4 µM Ca2+; result = 0.182
